Measured values gathered from unrelated publications.
Numbered parts are unrelated; each lists some results of a single study.

Set 1 — method: RNA Bind-n-Seq; molecule type: RNA; medium: in vitro; tested at: 365 nM; relative to: no-protein control; direction: higher = stronger binding
Target: RNA binding protein fox-1 homolog 2, RRM domain, GST-SBP tag (RBFOX2, Homo sapiens, UniProt O43251-10, residues 100-194)
Setting: natural RNA segment, single round, ends assumed
Shared flanks, not repeated: GGGAGUUCUACAGUCCGACGAUC … UGGAAUUCUCGGGUGCCAA
Residues (chain): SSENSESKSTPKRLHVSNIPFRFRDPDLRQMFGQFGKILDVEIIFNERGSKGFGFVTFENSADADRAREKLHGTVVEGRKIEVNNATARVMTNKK
Sequence | RBNS enrichment (R)
CAAACUGAUUUGUUAAAGCUCCAGGUCACGUUCUUACACUAAGAAAAUCAUUCAGUAAACAUGAGACAAGUUUAGGAAAAACUAAUAAAAUAAACCUGUCUUAAACUUGA | 0.489
UUGUCACAGAAGAGAGAAAAGAUCAUUGAGGACAGUUGCCUUGGGAGAGUUCAAGUCUUUGUCGUUACACACUGCUGUUUUGAUUAUUGGUCUUAGUUUUGAUCCUGUUG | 0.709
GAGUUUUCAGAUCAAAAACUGGUUACCAUUUUUUGUCAGAGUGUCUGAUGCGGCCACUCAUUCGGCUCCCCAGAAUUCCUAGACUGGGUUAAUAGGGUCAUAUUGUGAAU | 1.24
UUUCUAGAAUUCUCCAGGGAUUUGGGCUUGGGAAACUUGGUAAGAAUAGUUUUUAUUUUUGAACAUUCAACUUUGGUUCUUCAAAGUAAUCUUUAAACAUGGGAAUAUGU | 0.798
AAAAAAUCUAUUCAGUCUACUCACAAAACAGUACAUUGUGGAAUAUUAUGGGGAAUUGUACCAAAACAAGAACCAUAUAAAUGAUGCCUAGGGACAAGAAAGAGGAACAA | 0.275
ACACCUGGAGCCAAAGCAGGAGUUGGAGGGACAAUGCCACUAUGAAUCUAAUGUUUAAAAGGUUAGGGAACAUGGAUAUUCGUACUCACAUCUGCGCCCCUCCCCCUUGC | 0.772
AAGCCUAGGCCAGCCAGAUACCACCAUUUGCUGCUUCAGGCUUGCCUGCCUGUUGUGAUAACCAGCUCUUAGGUAUUUCCUUUCCCUGAGGCUUUCCAUUUAACAUGGAA | 0.26
UUUGUCUAACUGCUAGUAACCCUACCGAGUUUUAUAUAUGAGUGGGAUACUCAAUCUGGCCUUAAAAAGAUACACAAAGAUGGGCUGUGGGUCCCUGGAAAGGGGGAGAG | 1.35
GUUUUUUUCAUUCCAUGUGCCCAGUUAAUCUUGCUUUCUUUGUUUGGCUGGGAUAGAGGGGUCAAGUUAUUAAUUUCUUCACACCUACCCUCCUUUUUUUCCCUAUCACU | 1.38
GUAUUCAAGAAUGCAUGGACCAGUAUAGGUUCGCUCUUGUUUCUACACCUCCAGAAUGAUAGCUGACAUUUUUGUUUUGUUUUUCAGCAGUUGCCAUGAGCCAAACCCUA | 3.21
AAAUGCCAGCCAGGUGCUGGCUGUGGGCUUUCCCUCCUCAACACCCUUAUUUAGAAAGGAAACUGUGUGGGGGGAGAUGCAGGCCUGAGCCCCAUAGCGAGCUUGCCUUU | 0.415
CCGGAAGGUGCCAGCAAUGAGACUGAGCGAGACUAGGGCUGGCACUUGGCUGCCCGCCUUCCCAGUGCCCCGGGACAUCAGAGGCAGGUGGGCAAGGGCUGCGGCUCUGC | 0.42

Set 2 — method: protein binding microarray; molecule type: double-stranded DNA, one strand shown; medium: in vitro; tested at: not given; relative to: not given; direction: higher = stronger binding
Target: Histone acetyltransferase KAT6A, winged helix 2, GST fusion (KAT6A, Homo sapiens, UniProt Q92794, residues 85-181)
Setting: 8-mer, flanks averaged, mean of 2 arrays, mostly near background
Construct (chain): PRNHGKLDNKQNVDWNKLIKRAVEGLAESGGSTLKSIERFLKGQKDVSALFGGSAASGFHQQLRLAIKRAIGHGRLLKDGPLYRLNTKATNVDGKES
Sequence | E-score
GATATAAC | 0.152
GGGAGGAC | -0.0377
AAGGTCTC | -0.0557
CCGGTTCG | 0.103
CATCAAAC | -0.0662
AGGCTATA | 0.0101
GATGGACA | -0.0603
GTACAGTA | -0.183
CTACCCGC | 0.164
CCTGTCCC | 0.0311
AAAAGCCT | -0.0628
CTATAGTA | -0.0263
AGTATGAG | -0.0357
GATACCAA | -0.103
GCTCAACA | 0.0778
ATAAGTTG | -0.0216
CACTTAAG | 0.0652
CGGCTAAC | 0.0588
GCGGCACC | 0.117
AATAGAGT | -0.247
AGTCGCAC | -0.154
AGCCAGAA | -0.0987
AAACCTAG | 0.0564

Set 3 — method: protein-binding microarray; molecule type: double-stranded DNA, one strand shown; medium: in vitro; tested at: not given; direction: higher = stronger binding
Target: Transcriptional repressor CTCF (CTCF, Homo sapiens, UniProt P49711, residues 1-727, full length assumed)
Sequence of UniProt P49711 (whole entry, looked up): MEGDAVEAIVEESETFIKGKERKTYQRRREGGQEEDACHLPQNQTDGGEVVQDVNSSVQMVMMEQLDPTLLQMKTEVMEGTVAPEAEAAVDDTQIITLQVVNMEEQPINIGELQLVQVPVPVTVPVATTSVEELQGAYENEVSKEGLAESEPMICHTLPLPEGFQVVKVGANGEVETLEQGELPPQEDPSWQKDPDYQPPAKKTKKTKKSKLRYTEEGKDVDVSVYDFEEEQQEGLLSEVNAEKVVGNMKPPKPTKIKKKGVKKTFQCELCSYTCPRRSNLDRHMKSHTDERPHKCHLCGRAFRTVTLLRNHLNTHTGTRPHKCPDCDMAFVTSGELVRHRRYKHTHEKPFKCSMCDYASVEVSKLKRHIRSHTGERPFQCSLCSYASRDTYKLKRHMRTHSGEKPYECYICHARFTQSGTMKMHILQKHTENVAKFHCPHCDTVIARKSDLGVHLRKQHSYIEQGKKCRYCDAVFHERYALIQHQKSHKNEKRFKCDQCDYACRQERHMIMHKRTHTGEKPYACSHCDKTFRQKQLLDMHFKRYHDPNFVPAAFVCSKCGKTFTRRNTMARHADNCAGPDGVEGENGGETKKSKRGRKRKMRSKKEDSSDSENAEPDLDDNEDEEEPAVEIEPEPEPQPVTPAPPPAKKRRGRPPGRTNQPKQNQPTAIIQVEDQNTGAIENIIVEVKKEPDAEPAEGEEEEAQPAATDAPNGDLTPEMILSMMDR
Setting: k-mer, scored over probes, only values ≥0.25
Sequence | E-score
ACCCCACC | 0.256
AATAACCT | 0.265
AATGCGCG | 0.394
ATAAAATA | 0.37
AATATATG | 0.367
CATAACAA | 0.307
CATAATAA | 0.269
GCGCCCTA | 0.27
TATATTGA | 0.361
CATATACA | 0.356
TATTATCA | 0.301
AAAATTGC | 0.253
ATTTCTGC | 0.262
ATAAAACA | 0.28
AAATAACG | 0.319
CGTATACG | 0.293
CGCCCCCA | 0.375
AATACACA | 0.302
TAGGGGGA | 0.355
GCGCCGCC | 0.404

Set 4 — method: RNA Bind-n-Seq; molecule type: RNA; medium: in vitro; tested at: 200 nM; setting: whole 134-nt RNA, ends assumed; with: 150 mM KCl; relative to: input library; direction: higher = stronger binding
Target: Ras GTPase-activating protein-binding protein 1, full length (G3BP1, Homo sapiens, UniProt Q13283)
Sequence of UniProt Q13283 (whole entry, looked up): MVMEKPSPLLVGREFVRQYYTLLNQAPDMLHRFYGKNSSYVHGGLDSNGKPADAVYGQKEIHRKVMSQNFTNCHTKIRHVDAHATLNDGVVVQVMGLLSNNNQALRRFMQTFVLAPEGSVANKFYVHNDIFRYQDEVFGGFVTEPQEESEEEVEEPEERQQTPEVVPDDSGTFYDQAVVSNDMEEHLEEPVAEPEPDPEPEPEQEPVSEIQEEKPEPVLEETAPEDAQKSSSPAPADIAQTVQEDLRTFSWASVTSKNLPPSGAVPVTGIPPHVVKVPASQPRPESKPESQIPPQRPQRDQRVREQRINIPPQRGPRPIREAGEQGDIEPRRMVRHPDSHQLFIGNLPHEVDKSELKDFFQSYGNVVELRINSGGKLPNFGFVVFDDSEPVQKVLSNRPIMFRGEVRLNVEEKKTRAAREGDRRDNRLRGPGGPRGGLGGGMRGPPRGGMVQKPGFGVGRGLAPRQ
Shared flanks, not repeated: GGGAGUUCUACAGUCCGACGAUC … UGGAAUUCUCGGGUGUCAAGG
Sequence | log2 enrichment
GUCCUGUGCUACACAUCGUAUGUACCGAAUCGGGUUUUUGGGAAAGGGAAAAAAAGGGAAAGUAUUAUGUUACGCCGUUCGGAUCUGCAC | -0.469
CUCAAGUCCUGUGCUACACAUCGUAUGUACCGAAUCGGCCGGCCGGGCCGGGGAAAGUAUUAUGUUACGCCGUUCGGAUCUGCACUUCCA | -0.39
CACAGACAACACGCACCCACACAGACACAGAGGGAAGGGGUUGGGAUCGGGACAGGGUGCACAGCAGGGCGGGGUAGGACCCCAGCCCCU | 1.81
UCCUGUGCUACACAUCGUAUGUACCGAAUCGGGAAAGGGUUUUUUUGGGAAAAAAAGGGAAAGUAUUAUGUUACGCCGUUCGGAUCUGCA | -0.449
UUCUCUCAUUUCUUCUGAAAUACAGGGCAAAUUGGAUCAAGGCAGUUCAGAUGUGUAGCAAACCCAGAGAAUUUGCAUUGGCUUUAGCCA | 1.22
UCUCAGCAGGCGCAUCUACACUAGUGACCUGAGGAGAGAAACCCUAACCCCACAAUGGCUGCAUCUUCUCUGAAGACGAGACUGAUGCUC | -0.496
CCUCAAGUCCUGUGCUACACAUCGUAUGUACCGAAUCGGUUGGUUGGUUGGGAAAGUAUUAUGUUACGCCGUUCGGAUCUGCACUUCCAG | -0.125
CACAGACAACACGCACCCACACAGACACAGAGGGAAGCGGUUGGGAUGGGGACAGGGUGCACAGCAGGGCGGGGUAGGACCCCAGCCCCU | 1.92
UCCUCAAGUCCUGUGCUACACAUCGUAUGUACCGAAUCGGUGGAAAGGUGGAAAGUAUUAUGUUACGCCGUUCGGAUCUGCACUUCCAGC | -0.588
CCUCAAGUCCUGUGCUACACAUCGUAUGUACCGAAUCGGGCGGCGGGGCGGGGAAAGUAUUAUGUUACGCCGUUCGGAUCUGCACUUCCA | 1.04
UAACUUUAGAGGAGGAUCUGAUGGAUAUGGCAGUGGACGUGGAUUUAGGGAUGGCUAUAAUGGGUAUGGAGGAGGACCUGGAGGUGGCAA | 0.407
CAAGUCCUGUGCUACACAUCGUAUGUACCGAAUCGGGUUUUUGGGUGGGUUUGGGAAAGUAUUAUGUUACGCCGUUCGGAUCUGCACUUC | 0.421
UCCUGUGCUACACAUCGUAUGUACCGAAUCGGGGAAAAAAAGGGGAAAGGGGUUUGGGGAAAGUAUUAUGUUACGCCGUUCGGAUCUGCA | 0.841
UCCUGUGCUACACAUCGUAUGUACCGAAUCGGAAAAAGGGGAAAAAGGGGAAAAAGGGGAAAGUAUUAUGUUACGCCGUUCGGAUCUGCA | -0.0732

Set 5 — method: competition protein-binding microarray; molecule type: double-stranded DNA, one strand shown; medium: in vitro; tested at: 2 µM; with: Cbf1 competitor, 0.05 µM; direction: higher = stronger binding; shared flanks, not repeated: … GTCTTGATTCGCTTGACGCTGCTG
Target: Phosphate system positive regulatory protein PHO4, full length, GST-tagged (PHO4, Saccharomyces cerevisiae, UniProt P07270, residues 1-312)
Setting: whole 60-bp probe, lowest competitor level
Construct (chain): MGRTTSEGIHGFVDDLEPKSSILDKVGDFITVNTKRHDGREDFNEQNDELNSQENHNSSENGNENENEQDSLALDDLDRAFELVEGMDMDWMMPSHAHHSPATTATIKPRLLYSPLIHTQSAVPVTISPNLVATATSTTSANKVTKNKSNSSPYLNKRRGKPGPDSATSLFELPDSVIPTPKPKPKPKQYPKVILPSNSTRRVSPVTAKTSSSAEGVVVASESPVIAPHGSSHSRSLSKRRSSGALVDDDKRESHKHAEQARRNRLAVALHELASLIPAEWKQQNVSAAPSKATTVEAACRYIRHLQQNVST
Sequence | fluorescence intensity [a.u.]
CAGAACTAGATGGCGCTCGTGATTGTGAAAACGGGG | 6660
CATACCCAACCTTGTCACGTCACTTAAGATATTTGT | 4760
GTCTTGTCTCATTGAGATGTGGGTGTCCCCACTTCA | 4850
GACACGACTGACAAACAAAAGTTAATATATATTACA | 4390
CCGGTTTTGTAGGACTAGGTGTGTTCAGTGGTGGCT | 5410
TTTTCTTTTCTGTTAAACGTGTGAATTGTCGTTCCT | 9760
AAAGCGGTAATTTGGTACGTGGGTGCAGATATCTAT | 8860
TTTTTGTTCGCTACCCACGTCTTGACCGACGGTACC | 6660
ACTAACGACTATTTGCACGTTGCAGTATTGTTCTGG | 13500
ACATTGTCCCTATTTCACGTGGCCGAATGACACAGT | 15400
GTCTTGTCTCATTGATGGGTGGGTGTCCCCACTTCA | 5410
GTCTTGTCTCATTGTACGGTGGGTGTCCCCACTTCA | 4870
TCGCAGATGTTGCCCAGCCTGATCCAGCTCGTATTA | 2460
CTAACGAAGGTTTTTCACGTGGTATACAAGCCAAGT | 16200
CATACCCAACCTTGCCACGTGTTTTAAGATATTTGT | 18900
TCTTTGTCTGCTCGAGACGTGGGTAGTTAGCAAGTC | 7380
TGTGGGTAATTAGATAATTGTTGGGATTCCATTGTT | 2920
AATAAGACGGACGGCCACGTGACGGAAGATTTTTTT | 17900
CCATTGGTGTACCGTCACGTGCTAAGGTTCTGCTGT | 17700
GGTATGTTCTGCAACAGCGTGCCAGTCTCTTGGCCC | 9340
CTTCTGTAAATTTGAGACGTGGGTGGACGCGCCCCG | 5750
AAAGCGGTAATTTGTTCGGTGGGTGCAGATATCTAT | 4110
TCAAAACCAAGAATTGATGTGCAGGAAAATGAAGAT | 4140
AGCTGGGACTATAGGCACGTGCCACCACACCCAGCT | 18800
AGTCATTGCGTTACCCACGTGGTCGTTATTGTCCAT | 18200

Set 6 — method: RNAcompete; molecule type: RNA; medium: in vitro; tested at: 20 nM; setting: 7-mer, probes averaged, single round; relative to: mean of 7-mers; direction: higher = stronger binding
Target: PABPC1L2, full length, GST fusion (mouse, UniProt A0ABA7IW68)
Construct (chain): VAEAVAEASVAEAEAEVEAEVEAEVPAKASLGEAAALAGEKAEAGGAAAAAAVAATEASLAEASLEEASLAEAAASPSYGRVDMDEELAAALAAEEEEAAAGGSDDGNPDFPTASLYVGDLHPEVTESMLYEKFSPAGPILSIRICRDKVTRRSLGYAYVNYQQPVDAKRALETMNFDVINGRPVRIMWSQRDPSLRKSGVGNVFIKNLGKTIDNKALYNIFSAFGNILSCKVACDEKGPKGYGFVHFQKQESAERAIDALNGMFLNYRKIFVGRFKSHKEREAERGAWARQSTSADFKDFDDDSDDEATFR
Sequence | 7-mer Z-score
UUAGCAU | -0.18
UAUUGAA | -0.0518
CUUUCUG | -0.481
CAUUAAU | -0.249
ACUGUAC | -0.166
AUCUCCA | -0.353
AGGCAUU | 0.113
AGUGCCA | -0.00652
CGUCGGA | -0.258
CCUGCCG | -0.418
CAAGGGA | 0.311
GCAUAAA | 2.44
GGCCCUU | -0.153
CUAUACG | -0.222
CCGAUUG | -0.191
UUUACAC | -0.173
UCUUACC | -0.409
GUGAUGU | -0.26
UGCGACU | -0.13
GUGAUCU | -0.184
UCGCUCC | -0.376
UGGUCAA | 0.0134

A few entries again (set 2):
Sequence | E-score
CCGGTTCG | 0.103
CATCAAAC | -0.0662
AGGCTATA | 0.0101
GATGGACA | -0.0603
GTACAGTA | -0.183
CTACCCGC | 0.164
CCTGTCCC | 0.0311
AAAAGCCT | -0.0628
CTATAGTA | -0.0263
AGTATGAG | -0.0357
GATACCAA | -0.103
